Published values gathered from unrelated publications.
A part holds a random share of what one study measured.

Set 1 — method: universal PBM; molecule type: double-stranded DNA, one strand shown; matrix: in vitro; tested at: not given; reading: higher = stronger binding
Target: Sal-like protein 4, full length isoform B (SALL4, Homo sapiens, UniProt Q9UJQ4-2, residues 1-616)
Setting: 8-mer, flanks averaged, mean of replicates
Construct (chain): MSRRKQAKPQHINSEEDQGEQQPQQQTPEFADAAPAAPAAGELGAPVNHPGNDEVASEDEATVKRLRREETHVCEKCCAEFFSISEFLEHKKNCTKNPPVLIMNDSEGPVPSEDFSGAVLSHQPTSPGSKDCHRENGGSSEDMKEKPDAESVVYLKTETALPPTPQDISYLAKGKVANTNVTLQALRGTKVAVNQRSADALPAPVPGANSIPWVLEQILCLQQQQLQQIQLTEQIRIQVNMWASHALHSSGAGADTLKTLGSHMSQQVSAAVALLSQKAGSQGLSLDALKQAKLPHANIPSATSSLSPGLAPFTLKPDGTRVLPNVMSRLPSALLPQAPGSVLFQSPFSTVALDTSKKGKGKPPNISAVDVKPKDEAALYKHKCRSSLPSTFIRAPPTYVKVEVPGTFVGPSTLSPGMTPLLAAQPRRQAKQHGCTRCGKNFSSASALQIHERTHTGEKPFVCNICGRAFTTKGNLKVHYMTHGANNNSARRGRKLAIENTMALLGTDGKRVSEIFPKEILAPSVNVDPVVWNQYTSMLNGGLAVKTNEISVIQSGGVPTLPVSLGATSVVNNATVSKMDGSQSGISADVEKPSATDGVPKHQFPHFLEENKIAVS
`AGGTGGCG` has an E-score of -0.121.
For `GCCTTTTA`, the E-score was -0.0984.
`AGATGTCG` has an E-score of -0.069.
For `CAGGAAGG`, the E-score was -0.162.
`CATAGTGC` has an E-score of 0.148.
With `ATAGCTTG` the E-score was 0.138.
The E-score of `ATGTTTCC` is reported as 0.0529.
`TTATGCAA` gave an E-score of 0.234.
With `CTGGACAG` the E-score was -0.205.
For `CCCATCGG`, the E-score was -0.15.
`CCACCCAC` gave an E-score of -0.0688.
With `CCTCCCTA` the E-score was -0.24.
`GTGTTTGA` has an E-score of 0.117.
`ACTTTCTC` has an E-score of 0.0423.
For `CAGTCTTC`, the E-score was -0.242.
`GCAATGCA` gave an E-score of -0.0906.
For `CAGCTAAG`, the E-score was -0.187.
The E-score of `CCGCGATA` is reported as 0.00502.

Set 2 — method: RNA Bind-n-Seq; molecule type: RNA; matrix: in vitro; tested at: 365 nM; reference: no-protein control; reading: higher = stronger binding
Target: RNA binding protein fox-1 homolog 2, RRM domain, GST-SBP tag (RBFOX2, Homo sapiens, UniProt O43251-10, residues 100-194)
Setting: natural RNA segment, single round, ends assumed
Residues (chain): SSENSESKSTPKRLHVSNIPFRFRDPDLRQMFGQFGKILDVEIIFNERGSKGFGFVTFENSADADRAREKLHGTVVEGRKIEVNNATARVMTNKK
`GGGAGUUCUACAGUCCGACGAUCCCUGUGCACUUCUAGAAUCCCAGCAGCCAAGAGCCGUUGGGGCAGGAGGGCCUGUGGUGACCUACUGCAUUGACCCACUCUGCCCCCGAGUGAACCGUGGAGCAGGCAGGUGGAAUUCUCGGGUGCCAA` — result for “RBNS enrichment (R)”: 0.264.
For `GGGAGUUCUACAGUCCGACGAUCCAUGCCAUCUGGUGCCAAAUGAAAAUUCUUAGGAGUGAAUAUUAAUCAUGAAGGUCACAGUUGUGGUACUGUUAUUGAUAAUAAUAUAGGGUUUUUUUCUGCCUAAGUUUUGGAAUUCUCGGGUGCCAA`, “RBNS enrichment (R)” read 0.798.
For `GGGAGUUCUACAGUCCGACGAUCCCGUCCACUGCGCGGCCUCGUCAGUCCCGGGGCUGACUGUCCCUCUCAGCUCUGCGCCUGCCAGGCAGGGCACGUGCUCACAGCCCUGGGUUGAUUUAUUUUUUUAAGGGUGGAAUUCUCGGGUGCCAA`, “RBNS enrichment (R)” read 3.29.
For `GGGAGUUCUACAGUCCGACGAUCGAACCCUGGCUGAUAUUGAAGUCAUCAUUGUUGGAUGGUUUAUUCUGUUUUGUUGUUAAUGCUCAGACAGUAUUGUCUGAGAAAUUACACCUGAGUGCAUUUAAGUAUUUUGGAAUUCUCGGGUGCCAA`, “RBNS enrichment (R)” read 0.462.
`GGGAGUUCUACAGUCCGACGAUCAGAUCUGUAUAUGUGGGAACAAAUAAGUAAAUAUAUAUACAUAUAUAUAUAUUUAAGUACAGUUUUCAUCAGGAGGUUUUAAAGGCCAUAUUGCUAACCUCACCAAAAGGUGGAAUUCUCGGGUGCCAA` — result for “RBNS enrichment (R)”: 0.812.
`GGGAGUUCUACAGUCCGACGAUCCCCUGCCUUAACCUAGGACCAACCUGGGACCUGACCUGUGAGGACUCUGUGCUGACCUUAUUCUUGGGGAAGGGAACAGAUUUUGACCUAGAUCAAGUGUAACUUAGGUCUGGAAUUCUCGGGUGCCAA` — result for “RBNS enrichment (R)”: 0.362.
For `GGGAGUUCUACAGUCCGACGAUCCCUUCUUACUCACACACAAAAUGUACCCAGUAUUCUAGGUAGUGCCCUAUUUUACAAUUGUAAAACUGAGGCACGAGCAAAGUGAAGACACUGGCUCAUAUUCCUGCAGCUGGAAUUCUCGGGUGCCAA`, “RBNS enrichment (R)” read 0.564.
For `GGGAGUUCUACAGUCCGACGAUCAGGCCCCCUGCAGGAGGUCCGCUGCAGAUGGCACUGCCCUUCCUUCAGGUCAGGUGGCCCACCACCCUCUGGAAGCCAGGUGCCCACCCCACCUCCAGCUCUGCUGGCAAUGGAAUUCUCGGGUGCCAA`, “RBNS enrichment (R)” read 0.241.
Under “RBNS enrichment (R)”, `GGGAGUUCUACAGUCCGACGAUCCUGUCUAGUGCGUGCUAUCUGUGUGGGGAGAAGCUUCGUGAAUAUGCACCGUUUUGAUGCCCAUGCAACAGUGAGGAAGAAAAACCCUCGAGACAUUUUUUCUGUACUCAUGGAAUUCUCGGGUGCCAA` is recorded as 0.996.
For `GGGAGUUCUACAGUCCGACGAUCCUGGGGCUGGGGCUGCCCACGUGUGGCCUCCGCUGGCUCUGCCUGCUCCUGCAACAGUGCGGUCCCUGCCCGGAGAACUCAGGAGGCCUGCAGAAGAGAACUGAUUGGUGUGGAAUUCUCGGGUGCCAA`, “RBNS enrichment (R)” read 0.714.
`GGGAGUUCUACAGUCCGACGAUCGCCUCGGGAAAGUCUGGUCCCACAUCUGCCCGCCCUUCCAGCCCUUCCCCAGCCCCUCCUCUUGUUUCUUCAUUCAUUCAACAAAAUUUGGCUGGAAUCUGGUUAUUUUGUGGAAUUCUCGGGUGCCAA` — result for “RBNS enrichment (R)”: 0.885.
`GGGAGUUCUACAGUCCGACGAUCCCUUGAGAGUCAACUGUACAGAUGUUUGCAGGUGACUCCUGCUUGCCACCCACCCAUCAUAUUUGAUUCUGUGGGAGUGGGCACCCAUACACCUGUGUAUGUGAAAGUCAUGGAAUUCUCGGGUGCCAA` — result for “RBNS enrichment (R)”: 0.479.

Set 3 — method: protein-binding microarray; molecule type: double-stranded DNA, one strand shown; matrix: in vitro; tested at: 0.8 µM; setting: whole 60-bp probe, no competitor; reading: higher = stronger binding
Target: Centromere-binding protein 1, full length, N-terminal tag (CBF1, Saccharomyces cerevisiae, UniProt P17106, residues 1-351)
Sequence of UniProt P17106 (whole entry, looked up): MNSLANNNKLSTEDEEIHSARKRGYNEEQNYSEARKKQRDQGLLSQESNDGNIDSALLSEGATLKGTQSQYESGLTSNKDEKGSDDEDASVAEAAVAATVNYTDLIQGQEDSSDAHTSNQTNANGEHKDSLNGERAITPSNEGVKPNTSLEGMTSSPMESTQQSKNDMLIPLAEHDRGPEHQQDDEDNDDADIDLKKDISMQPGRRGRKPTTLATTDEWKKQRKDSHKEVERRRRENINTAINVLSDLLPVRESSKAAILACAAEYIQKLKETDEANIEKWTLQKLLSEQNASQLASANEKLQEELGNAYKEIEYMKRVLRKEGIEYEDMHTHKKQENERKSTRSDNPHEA
`CTAAAAATGATAGGTTACGTGCTATATCCGGAATTCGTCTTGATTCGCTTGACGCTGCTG` gave a fluorescence intensity of 536 a.u.
With `GAATTTACAAAAGTCCGGGTGACATTACATACATAGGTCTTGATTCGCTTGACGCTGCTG` the fluorescence intensity was 510 a.u.
`GAATAATGTAGACGTGGTGTTACTACAATTGTATAGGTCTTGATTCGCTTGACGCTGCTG` gave a fluorescence intensity of 545 a.u.
`GAAATGGTATATTGGCACCTGAGCAAATCCAACTAGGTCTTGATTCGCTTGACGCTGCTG` has a fluorescence intensity of 633 a.u.
The fluorescence intensity of `CTAAACTCATCTGTTCTCGTGTGCGCCTGTGTGTTCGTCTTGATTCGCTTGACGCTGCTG` is reported as 562 a.u.
The fluorescence intensity of `GAAATAAGCGCTAGCGTGGTGACACCCACAAAATAGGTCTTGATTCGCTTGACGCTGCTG` is reported as 547 a.u.
With `GAATACATTGGTATAGACGTGGGAGAAGAAAAGTAGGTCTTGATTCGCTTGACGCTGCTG` the fluorescence intensity was 618 a.u.
`GAAACAAGCTTAATGCACGAGCCGAAACAATATTAGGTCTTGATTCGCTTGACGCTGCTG` has a fluorescence intensity of 564 a.u.
For `GAAAAGTCGTTTATACACGTTTGAGTTGTGTGTTAGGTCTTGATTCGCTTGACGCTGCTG`, the fluorescence intensity was 524 a.u.
`CTAGAAACTGTTCTATGCGTGCAAAATGATATGTTCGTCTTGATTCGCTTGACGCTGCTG` gave a fluorescence intensity of 567 a.u.
`GAAAAGGAAGGTGTTCACGTTCCTGATTTATTCTAGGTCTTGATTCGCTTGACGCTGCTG` gave a fluorescence intensity of 670 a.u.
The fluorescence intensity of `CCTAACTACTATACATCCGTGATATAGCTTCGTACAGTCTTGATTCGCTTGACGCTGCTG` is reported as 531 a.u.
The fluorescence intensity of `GAATGCAGTTTATGATATGTGATCGCGTTAAAATAGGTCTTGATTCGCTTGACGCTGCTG` is reported as 544 a.u.
For `CTACTTTTTATTCATGATGTTTCGAAGAAGAGATTCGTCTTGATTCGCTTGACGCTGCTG`, the fluorescence intensity was 587 a.u.
`CTAAGCAGATTTGATTAGGTGATGAGACAAATATTCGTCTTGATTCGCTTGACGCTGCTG` has a fluorescence intensity of 524 a.u.
The fluorescence intensity of `GAATATAATGTGGGTGATGAAACACGGATTATATAGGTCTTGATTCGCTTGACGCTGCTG` is reported as 541 a.u.
The fluorescence intensity of `CTAGGCAAAATAATACACGTGCCCGTACGGCACTTCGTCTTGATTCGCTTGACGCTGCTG` is reported as 5420 a.u.
`GAATATTATATGAATCCACGCACCTGATCTGGCTAGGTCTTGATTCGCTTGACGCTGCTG` gave a fluorescence intensity of 1600 a.u.
The fluorescence intensity of `GAAGCTTGCGAGGGACACACGTGGTATGGTGGCTAGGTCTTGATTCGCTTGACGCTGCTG` is reported as 3220 a.u.
`CTACCAAATGGGTGTCACCAGCGGTGGCCTTAATTCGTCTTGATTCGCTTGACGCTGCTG` has a fluorescence intensity of 459 a.u.
With `CTATGTTTTCGTTATCGCGTGGCACGATATCATTTCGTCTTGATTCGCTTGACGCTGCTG` the fluorescence intensity was 1300 a.u.
`CTATGAAAACTCACTCACGTCTTCCTAGAAGATTTCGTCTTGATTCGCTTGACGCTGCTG` gave a fluorescence intensity of 513 a.u.
`GAACCATAGTAACACCACGCAAGGTAACTGTCCTAGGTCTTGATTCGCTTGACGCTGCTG` has a fluorescence intensity of 517 a.u.
With `CTAACGCTTCAATGACGCCTGATGTCAAATGCTTTCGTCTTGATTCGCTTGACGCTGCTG` the fluorescence intensity was 576 a.u.
`CTAGATTCACCCCCTGATGTTTTTTAGGCCACTTTCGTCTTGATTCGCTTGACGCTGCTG` gave a fluorescence intensity of 548 a.u.

Set 4 — method: protein binding microarray; molecule type: double-stranded DNA, one strand shown; matrix: in vitro; tested at: not given; reference: not given; reading: higher = stronger binding
Target: Histone acetyltransferase KAT6A, winged helix 1, GST fusion (KAT6A, Homo sapiens, UniProt Q92794, residues 1-85)
Setting: 8-mer, flanks averaged, mean of 2 arrays, mostly near background
Target sequence (chain): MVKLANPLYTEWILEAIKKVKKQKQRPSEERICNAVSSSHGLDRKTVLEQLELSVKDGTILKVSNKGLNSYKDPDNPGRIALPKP
`CAACGTAG` has an E-score of -0.154.
For `GAGCCCTC`, the E-score was 0.00589.
With `GGTCCTAA` the E-score was 0.0197.
`CTGGGGTC` has an E-score of -0.165.
`CAAGTTGA` gave an E-score of -0.215.
With `GACGCGAA` the E-score was -0.000155.
`CGTCCGCC` gave an E-score of 0.4.
`CCAAACAG` has an E-score of -0.158.
The E-score of `ACCTTGGA` is reported as -0.214.
The E-score of `AAAACCAG` is reported as -0.0348.
With `CACCAGCA` the E-score was -0.247.
The E-score of `CCTGTCCA` is reported as -0.0856.
`CCAACTAA` gave an E-score of -0.137.
`AACAGTTC` gave an E-score of 0.0712.
`GTCAGACA` has an E-score of -0.0237.
`ATTGGGTC` gave an E-score of -0.116.

Excerpt of the above (set 1):
`CATAGTGC` has an E-score of 0.148.
`GCAATGCA` gave an E-score of -0.0906.
`AGGTGGCG` has an E-score of -0.121.
For `CAGGAAGG`, the E-score was -0.162.
With `CTGGACAG` the E-score was -0.205.
For `GCCTTTTA`, the E-score was -0.0984.
`CCACCCAC` gave an E-score of -0.0688.
`AGATGTCG` has an E-score of -0.069.
For `CAGCTAAG`, the E-score was -0.187.
For `CCCATCGG`, the E-score was -0.15.
